Published values pooled from the literature.
Compare with care: the assays were run in different laboratories.
Cell line: HFF

SMILES	assay	conditions	endpoint	value
CC1(C)CC[C@]23CC[C@]4(C)[C@H](CC[C@@H]5[C@@]6(C)CCCNC(C)(C)[C@@H]6CC[C@]54C)[C@H]2[C@H]1OC3	cell growth or viability, ATP luminescence	–	CC50	89.5 µM
COC(=O)c1nc(O)c2cccnc2c1O	cell growth or viability, MTS	10 µM, 7 days	viability	98%
COc1ccc(O)c(-c2nc(-c3ccccc3)c(-c3ccccc3)n2-c2ccccc2)c1	colorimetric viability	concentration not given, 72 h, at anti-Trypanosoma effective doses	cytotoxicity	not toxic
C[C@@H]1O[C@H]2O[C@@H]3C4(O)C(=O)c5cccc(O)c5C(=O)C4(O)O[C@]3(C)[C@]21O (some centres unmarked)	cell growth or viability, MTT	48 h	CC50	71 µg/mL
N#Cc1nc(N2CCOCC2)nc(N(Cc2ccc(F)cc2)CC2CCCOC2)n1 (centres unmarked)	cell growth or viability, MTS	7 days	CC50	34.6 µM
C[C@H](N)C(=O)OCCOCn1cnc2c(=O)[nH]c(N)nc21	cell growth or viability	–	CC50	> 300 µM
CC1(C)NCCC[C@]2(C)[C@H]3C=CC4=C5C[C@@](C)(CO)CC[C@]5(C)CC[C@@]4(C)[C@]3(C)CC[C@@H]12	cell growth or viability, ATP luminescence	–	CC50	80.9 µM
O=C(NCc1ccc(F)cc1)c1nc(NCCO)c2cccnc2c1O	cell growth or viability, MTS	7 days	CC50	> 50 µM
Nc1nc2c(ncn2COCCOC(=O)[C@@H](N)CS)c(=O)[nH]1	cell growth or viability	–	CC50	> 300 µM
COCCNc1nc(C(=O)NCc2ccc(F)cc2)c(O)c2ncccc12	cell growth or viability, MTS	10 µM, 7 days	viability	98%
Nc1nc2c(ncn2COCCOC(=O)CCC(=O)OC[C@H](N)C(=O)O)c(=O)[nH]1	cell proliferation	10% FBS	CC50	> 300 µM
CC(C)CCN(Cc1ccc(F)cc1)c1nc(C#N)nc(N2CCOCC2)n1	cell growth or viability, MTS	7 days	CC50	65.2 µM
Nc1nc2c(ncn2COCCOC(=O)[C@@H](N)CO)c(=O)[nH]1	cell proliferation	10% FBS	CC50	> 300 µM
CC1OC2OC3C4=C(OC3(C)C12O)C(=O)c1c(O)cccc1C4=O (centres unmarked)	cell growth or viability, MTT	48 h	CC50	3.97 µg/mL
